Measurements from different studies.
Each numbered part is a random draw from the data of one study; scales do not carry over between parts.

Series 1
Target: Histone acetyltransferase KAT6A, both winged helices, GST fusion (KAT6A, Homo sapiens, UniProt Q92794, residues 1-181)
Technique: protein binding microarray
Molecule type: double-stranded DNA, one strand shown
Medium: in vitro
Tested at: not given
Setting: 8-mer, flanks averaged, mean of 2 arrays, mostly near background
Baseline: not given
Direction: higher = stronger binding
Residues (chain): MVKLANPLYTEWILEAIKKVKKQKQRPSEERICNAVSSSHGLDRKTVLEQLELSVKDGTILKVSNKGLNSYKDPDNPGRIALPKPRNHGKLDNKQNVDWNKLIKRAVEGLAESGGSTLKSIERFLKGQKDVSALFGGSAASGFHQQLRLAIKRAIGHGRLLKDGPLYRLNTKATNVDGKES
With `ACCCGTCG` the E-score was 0.283.
`ACTTGTCC` gave an E-score of 0.103.
The E-score of `ACGATAAA` is reported as -0.00264.
The E-score of `GGCCGCCC` is reported as 0.192.
For `GCCGTCAC`, the E-score was 0.284.
For `AGTACCCG`, the E-score was 0.122.
The E-score of `TAATGGGA` is reported as -0.18.
With `AGCGCTTA` the E-score was 0.332.
`AAAGTCAG` gave an E-score of -0.011.
With `AGTCTCGC` the E-score was -0.0414.
For `AACCTTAC`, the E-score was -0.074.

Series 2
Target: TAR DNA-binding protein 43, full length, His tag (TARDBP, Homo sapiens, UniProt Q13148, residues 1-414)
Technique: RNA Bind-n-Seq
Molecule type: RNA
Medium: in vitro
Tested at: 20 nM
Setting: 6-mer, flanks averaged, single round
Together with: 150 mM KCl
Baseline: input library
Direction: higher = stronger binding
`GCUUCG`: “6-mer enrichment (R)” 0.79.
`UGGCAC`: “6-mer enrichment (R)” 0.917.
`UCCGGA`: “6-mer enrichment (R)” 0.843.
Under “6-mer enrichment (R)”, `GCGCGU` is recorded as 1.45.
`CGAUCG`: “6-mer enrichment (R)” 0.804.
Under “6-mer enrichment (R)”, `CACUGC` is recorded as 0.676.
For `CAUACU`, “6-mer enrichment (R)” read 0.566.
Under “6-mer enrichment (R)”, `GUCAAC` is recorded as 0.677.
`CAAGCA` — result for “6-mer enrichment (R)”: 0.687.
Under “6-mer enrichment (R)”, `ACCCCA` is recorded as 0.652.

Series 3
Target: RNA binding protein fox-1 homolog 2, RRM domain, GST-SBP tag (RBFOX2, Homo sapiens, UniProt O43251-10, residues 100-194)
Technique: RNA Bind-n-Seq
Molecule type: RNA
Medium: in vitro
Tested at: 365 nM
Setting: natural RNA segment, single round, ends assumed
Baseline: no-protein control
Direction: higher = stronger binding
Shared flanks, not repeated: GGGAGUUCUACAGUCCGACGAUC … UGGAAUUCUCGGGUGCCAA
Residues (chain): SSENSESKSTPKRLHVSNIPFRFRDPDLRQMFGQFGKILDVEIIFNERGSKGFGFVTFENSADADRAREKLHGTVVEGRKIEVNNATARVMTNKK
`GGCCUCCUCUCGCCUGGCCGCCAGCCCCAGCCCCAGCCCCAGCCCCAGGCCCAGCUGCCUUUGGCUUUGAUCUCAAGUCAGGCUGAAGGCAGCGAAGCCUCGGGGCCCAA`: “RBNS enrichment (R)” 0.168.
For `ACUGAGAAGAUCUUUUCUUUUUCCUUUUUUUGGUAACAAGACUUAGAAGGAGGGCCCAGGCACUUUCUGUUUGAACCCCUGUCAUGAUCACAGUGUCAGAGACGCGUCCU`, “RBNS enrichment (R)” read 0.189.
Under “RBNS enrichment (R)”, `GAAGGCAUGAGGCACUCUCUGAUGGCUUGCUAGUCAAAACUGGAAGGAUUUUCCUUAGGACAGGUGUGACCUUCUGGUCCCUCUGUCCCAUUGCCCUCUCGUAUUCCAUU` is recorded as 0.229.
`UAAGCAGGUUAACAGGAGCAUUGGCCACCAGCAGAAGGGCAUCACUGUCUCAGGCCUCAAGCCAGGCACCCAUCUCUGGAUGCCAGUCUAUAGCGGGUACCAGAGGAAAG`: “RBNS enrichment (R)” 0.388.
`GUCUGCACAAGGAGUGCCUUCUCAUGCUGAUUUGCAGACGGGGCACCCCUGUGGAGGGGCUGCUGUGGGCCCUGACCUCCAAGCUCCUGCCUCACCGUCUGCCUUGCUCC`: “RBNS enrichment (R)” 0.577.
Under “RBNS enrichment (R)”, `CCAAAUAAGCUUGCUGCCAUGGUCUAGGGUGAGGGUGCUGUCCUGUGCAAAUGUUAAGUUGGAUAUCACACUGUAUAUUUGCUGAGUCUCUUUUCCUAUAGGUUUGCAGA` is recorded as 0.88.
`UUAACAUAUAAUGUCAAAAUUUUCUAUUCUGGUGCCAAUAUAGAUGAAUUAAUUACGUUCCUGAUAGAUCACAGUCAAUCUUCUGAAGAUGAGUUAAAAAUGCCUUGUCU` — result for “RBNS enrichment (R)”: 0.492.
`CUAAGCCUAAGCCUAUGCCUAUGCCUUUCAGAGUUGGGAUUCCGGGCAUGCCACACCACUGCCCAGCUCGUUUAUAUUCUUAAAAGCAAAAUAUUACAUUUCAUUACUGC`: “RBNS enrichment (R)” 1.18.

Mixed results
The fold induction of `PhoQ, residues 284 288 289 292 302 303 TTSMTC` is reported as 3.39 (PhoP, residues 12 14 15 18 19 AQCLL (Escherichia coli, UniProt P23836); Sort-seq, measured: YFP reporter; E. coli; PhoQ-PhoP variant library, together with: 10 µM Mg2+; baseline: high Mg2+ state, higher = stronger signaling).

Some of these lines once more (series 2):
For `CAUACU`, “6-mer enrichment (R)” read 0.566.
Under “6-mer enrichment (R)”, `GUCAAC` is recorded as 0.677.
